Measured values of several laboratories.
Numbered parts are unrelated; each lists some results of a single study.

Block 1 — technique: protein-binding microarray; molecule type: double-stranded DNA, one strand shown; medium: in vitro; concentration: 2200 nM top; notes: 60-bp whole probe; with: salmon DNA 0.4 mg/ml; reference: random background probes; direction: higher = stronger binding; constant ends, left off below: GCCTAGCAC … GTCTTGATTCGCTTGACGCTGCTG
Target: Interferon regulatory factor 7, full length, phosphomimetic (IRF7, Homo sapiens, UniProt Q92985, residues 1-503, S471D/S472D/S475D/S476D/S477D/S483D/S484D/S487D)
Construct (chain): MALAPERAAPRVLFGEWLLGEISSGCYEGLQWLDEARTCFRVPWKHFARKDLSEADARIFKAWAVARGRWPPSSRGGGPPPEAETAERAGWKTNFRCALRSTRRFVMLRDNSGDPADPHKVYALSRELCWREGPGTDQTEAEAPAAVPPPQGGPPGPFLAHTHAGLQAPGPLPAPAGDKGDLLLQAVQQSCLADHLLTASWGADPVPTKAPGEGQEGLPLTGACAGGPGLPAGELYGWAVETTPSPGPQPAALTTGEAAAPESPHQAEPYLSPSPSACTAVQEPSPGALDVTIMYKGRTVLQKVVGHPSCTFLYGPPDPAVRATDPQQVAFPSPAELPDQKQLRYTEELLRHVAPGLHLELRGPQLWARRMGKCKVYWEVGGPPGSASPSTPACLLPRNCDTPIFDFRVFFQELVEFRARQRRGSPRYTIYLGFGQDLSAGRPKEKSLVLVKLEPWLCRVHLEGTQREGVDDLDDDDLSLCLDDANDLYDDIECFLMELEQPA
Under “fitted relative affinity”, `TTAGGTATCCTTCTCCTTTCGTGCTAG` is recorded as 1.78 z-score.
`GACGATTTCGGGTATCGAGAAGTGCTA` — result for “fitted relative affinity”: 2.73 z-score.
Under “fitted relative affinity”, `AACGGTTTCGGTTCCGGGACGTGCTAG` is recorded as 11.4 z-score.
`TCATGTCCCCCTTTTATACTGTGCTAG`: “fitted relative affinity” 1.4 z-score.
`CTAGAACTGAGACTGGATTAGTGCTAG`: “fitted relative affinity” -0.363 z-score.
For `GACGAACTGGGGTTTCGCGACGTGCTA`, “fitted relative affinity” read 0.368 z-score.

Block 2 — technique: competition protein-binding microarray; molecule type: double-stranded DNA, one strand shown; medium: in vitro; concentration: 2 µM; with: Pho4 competitor, 0.05 µM; direction: higher = stronger binding
Target: Centromere-binding protein 1, full length, His-tagged (CBF1, Saccharomyces cerevisiae, UniProt P17106, residues 1-351)
Sequence of UniProt P17106 (whole entry, looked up): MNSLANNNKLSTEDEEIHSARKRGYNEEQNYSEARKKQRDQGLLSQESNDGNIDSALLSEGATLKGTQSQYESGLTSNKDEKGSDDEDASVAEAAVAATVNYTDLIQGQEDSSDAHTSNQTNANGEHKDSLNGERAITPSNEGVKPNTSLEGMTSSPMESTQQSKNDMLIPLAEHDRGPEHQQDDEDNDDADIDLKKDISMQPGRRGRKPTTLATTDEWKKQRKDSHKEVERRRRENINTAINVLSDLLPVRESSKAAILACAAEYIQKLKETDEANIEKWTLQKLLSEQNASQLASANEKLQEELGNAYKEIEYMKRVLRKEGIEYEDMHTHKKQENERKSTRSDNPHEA
Notes: whole 60-bp probe, lowest competitor level
`ATCGACTCTCCTTGTCACGTTGACTTCTCCTCTGAAGTCTTGATTCGCTTGACGCTGCTG` has a fluorescence intensity of 433 a.u.
With `CCGATCAGACCAGCAAACGTGCAAACCACTTATGGAGTCTTGATTCGCTTGACGCTGCTG` the fluorescence intensity was 88.9 a.u.
With `CTTCTGTAAATTTTTCACGTGTTATGACGCGCCCCGGTCTTGATTCGCTTGACGCTGCTG` the fluorescence intensity was 951 a.u.
For `CCCCTCCTCTCTCCGCACGATTTCTTCCTTTCATATGTCTTGATTCGCTTGACGCTGCTG`, the fluorescence intensity was 91.3 a.u.

Block 3 — technique: protein binding microarray; molecule type: double-stranded DNA, one strand shown; medium: in vitro; concentration: not given; reference: not given; direction: higher = stronger binding
Target: Histone acetyltransferase KAT6A, winged helix 1, GST fusion (KAT6A, Homo sapiens, UniProt Q92794, residues 1-85)
Notes: 8-mer, flanks averaged, mean of 2 arrays, mostly near background
Construct (chain): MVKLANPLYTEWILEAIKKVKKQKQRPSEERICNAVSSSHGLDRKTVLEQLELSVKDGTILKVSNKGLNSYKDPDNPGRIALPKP
`AATTGGCC` gave an E-score of -0.139.
`GCGAGTCC` has an E-score of 0.238.
The E-score of `ATCCCAAT` is reported as -0.157.
With `ATTGGTGA` the E-score was -0.214.

Single results of other studies
With `PhoQ, residues 284 288 289 292 302 303 SLANKL` the fold induction was 6 (PhoP, residues 12 14 15 18 19 AWHSL (Escherichia coli, UniProt P23836); Sort-seq, item: YFP reporter; E. coli; PhoQ-PhoP variant library, with: 10 µM Mg2+; reference: high Mg2+ state, higher = stronger signaling).
